Measurements of several laboratories.
Compare with care: the assays were run in different laboratories. Several values in a cell are separate wells, animals, samples, runs or records. ± gives the spread as reported.
Ugcg: Ceramide glucosyltransferase (Ugcg, Mus musculus, UniProt O88693)
Chain of UniProt O88693 (whole entry, looked up): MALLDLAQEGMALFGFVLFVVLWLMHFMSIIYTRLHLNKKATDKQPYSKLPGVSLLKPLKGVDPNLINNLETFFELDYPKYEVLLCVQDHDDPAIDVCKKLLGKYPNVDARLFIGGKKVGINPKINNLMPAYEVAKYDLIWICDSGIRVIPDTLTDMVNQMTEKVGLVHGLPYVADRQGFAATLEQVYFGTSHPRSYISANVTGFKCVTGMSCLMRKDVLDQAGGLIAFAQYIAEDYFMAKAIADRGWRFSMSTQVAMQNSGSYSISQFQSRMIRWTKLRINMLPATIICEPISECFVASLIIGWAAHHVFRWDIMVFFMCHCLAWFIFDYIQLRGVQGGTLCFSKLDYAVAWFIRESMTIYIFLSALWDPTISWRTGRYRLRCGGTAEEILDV

CS(=O)(=O)c1ccc(-c2ccc(C3CCCCC3)cc2)cn1  hepatic clearance (hepatocyte stability; cryopreserved mouse hepatocytes; 1 µM): 67 mL/min/kg
CC[C@H](C)[C@H](NC(=O)[C@H](CCC(N)=O)NC(=O)[C@@H](NC(=O)[C@@H]1CCCN1[C@@H]1CN(C(=O)[C@H](CCCCN)NC(=O)[C@H](CC(N)=O)NC(=O)[C@@H](NC(=O)[C@@H](NC(=O)[C@H](CCC(N)=O)NC(=O)[C@@H](N)C(C)C)[C@@H](C)CC)[C@@H](C)CC)CC[C@H]1NS(=O)(=O)c1ccc(C)cc1)C(C)C)C(=O)N[C@H](C(=O)N[C@@H](Cc1ccc(O)cc1)C(=O)N[C@@H](CCCCN)C(N)=O)C(C)C  helix content (CD spectroscopy; 20 mM phosphate buffer; 125 µM, 37 °C): 4.6%
Fc1ccc(OCC2CN(Cc3ncc4ccccn34)CCC2(F)F)cc1 (centres unmarked)  fu (equilibrium dialysis; human plasma): 0.004
O=C(Nc1cnccc1-c1ccc([18F])cc1)c1ccnc(NC(=O)C2CC2)c1  SUV (FVB/NJ mice (both sexes), small intestine; intravenous, dose not given, 120 min): 5.34
OC1(C(F)(F)F)CCN(c2nc(Nc3ccnc(C(F)(F)F)c3)nc(-c3cccc(C(F)(F)F)n3)n2)C1 (centres unmarked)  AUC(0-24 h) (Sprague-Dawley rat, both sexes, plasma; oral gavage, 5 mg/kg, day 14): 13600 ± 3040 ng·h/mL
C=Cc1ccccc1[B-]12OC(=O)C(c3ccccc3)=N[N+]1=C(C)c1ccc(N(CC)CC)cc1O2 (centres unmarked)  fluorescence lifetime (toluene): 2.6 ns
C=C1C[C@]2(C(=O)OC)C=C(C(=O)Nc3cccc(C(=O)Nc4ccc(Nc5nccc(-c6cccnc6)n5)c(C)c4)c3)C(=O)[C@H]1C2  compound remaining (Wistar rat, male, plasma; 10 µM, 15 min): 3.33% and 8.27%
CCC1=[N+]2N=C(c3ccccc3)C(=O)O[B-]2(c2ccccc2)Oc2cc(N(CC)CC)ccc21 (centres unmarked)  fluorescence emission maximum (toluene): 509 nm
COc1cccc(OC)c1-c1cc(C(=O)NC2(C(=O)O)C3CC4CC(C3)CC2C4)nn1-c1ccc(C(=O)N(C)CCCN(C)CCCN(C)C(=O)[C@H](CCCCNC(=O)[C@H](CC(C)C)NC(=O)C2OC2C(=O)O)NC(=O)CN2CCN(CC(=O)[O-])CCN(CC(=O)[O-])CCN(CC(=O)[O-])CC2)cc1C(C)C.[177Lu+3] (mixture of isomers)  tumour-to-kidney ratio (mouse, HT-29 xenograft; 72 h post injection, biodistribution; baseline: tumour over kidney uptake): 1.41
O=C(NCCOc1ccc(F)cc1)c1ccc([C@H]2[C@@H](F)[C@@H](F)C[C@@H](F)[C@H]2F)cc1  hepatic clearance (hepatocyte stability; cryopreserved human hepatocytes; 1 µM): 9.4 mL/min/kg
O=C(Nc1cnccc1-c1ccc([18F])nc1)c1ccnc(NC(=O)C2CC2)c1  SUV (FVB/NJ mouse, both sexes, liver; intravenous, 30 min, together with: tariquidar 15 mg/kg iv): 8.82
O=C(NS(=O)(=O)c1cccs1)c1cc2ccccc2n1Cc1ccc(Br)c2ccccc12  body weight (KM mouse, chronic hyperuricaemia model; dose not given, day 14): 34.5 g and 31.1 g and 33.6 g and 36.1 g and 31 g
CN1CC[C@@H](COc2cnc(C#N)cc2-c2ccn3nc(NC(=O)C4CC4)cc3c2)C1  volume of distribution (rat, Sprague-Dawley, male, plasma; intravenous, 1 mg/kg): 10 L/kg
COc1cccc(OC)c1-c1cc(C(=O)NC2(C(=O)O)C3CC4CC(C3)CC2C4)nn1-c1ccc(C(=O)N(C)CCOCCN(C)C(=O)[C@H](CCCCNC(=O)[C@H](CC(C)C)NC(=O)C2OC2C(=O)O)NC(=O)CN2CCN(CC(=O)[O-])CCN(CC(=O)[O-])CCN(CC(=O)[O-])CC2)cc1C(C)C.[177Lu+3] (mixture of isomers)  tissue uptake (mouse HT-29 xenograft, large intestine; 24 h post injection, biodistribution): 0.24 %ID/g
O=C(Nc1ccc(C2CCCCC2)cc1)C1CC1  hepatic clearance (liver microsome stability; cynomolgus liver microsomes; 1 µM): 37 mL/min/kg
C/C(N)=N/C(=N\S(=O)(=O)c1ccc(C(F)(F)F)cc1)N1C[C@H](c2ccccc2)C(c2ccc(Cl)cc2)=N1  Cmax (cynomolgus monkey, female, plasma; oral, 6 mg/kg): 1190 ng/mL
Cc1ccc(OCC(=O)N(Cc2cccs2)c2ccn[nH]2)cc1  remaining compound (monkey plasma; 750 ng/mL, 2 h, 37 °C, unit not given; baseline: time zero): 83.1
C=CC(=O)Nc1cc(Nc2nccc(-c3c[nH]c4ccccc34)n2)c(OC)cc1N(C)CCN(C)C  percentage recovery (storage stability; human dried blood spot samples; 30 d, -80 °C, MQC level; baseline: nominal concentration): 49.9%
COC(=O)[C@@]1(C)C=C(C(=O)Nc2cccc(C(=O)Nc3ccc(Nc4nccc(-c5cccnc5)n4)c(C)c3)c2)C(=O)CC1  compound remaining (Wistar rat male, blood plasma; 1 µM, 30 min): 43.2%
C=CC(=O)Nc1cc(Nc2nccc(-c3cn(C)c4ccccc34)n2)c(OC)cc1N(C)CCNC  remaining compound (human, plasma; 270 ng/mL, 2 h, -80 °C, high QC level): 100%
O=C(CN1CCCCC1)Nc1ccc([C@H]2[C@@H](F)[C@@H](F)C[C@@H](F)[C@H]2F)cc1  hepatic clearance (dog liver microsomes; 1 µM): 23 mL/min/kg
CSCc1cn(-c2cccc(C(=O)N3CCC(c4nc(-c5ccccc5)n[nH]4)CC3)c2)nn1  permeability (PAMPA; artificial lipid membrane; 30 min): 240 ± 115 ×10⁻⁶ cm/s
CC(=O)Nc1ccc([C@H]2[C@@H](F)[C@@H](F)C[C@@H](F)[C@H]2F)cc1  hepatic clearance (liver microsome stability; dog liver microsomes; 1 µM): 28 mL/min/kg
COc1cc(N2CCN(C(=O)C3CCCN3)CC2)ccc1Nc1ncc(Cl)c(Nc2ccccc2P(C)(C)=O)n1 (centres unmarked)  body weight (nude mice, NCI-H3122 xenograft; oral, dose not given, day 16): 22.9 g and 22.4 g and 23 g and 23.1 g and 25.1 g
O=C(CC(F)(F)F)Nc1ccc(C2CCCCC2)cc1  hepatic clearance (hepatocyte stability; cryopreserved rat hepatocytes; 1 µM): 48 mL/min/kg
C=C(NC(=O)c1csc(-c2nc3c(cc2O)-c2nc(cs2)C(=O)NC(C(C)O)C(=O)NC(=C(C)OC)c2nc(cs2)C(=O)NC2c4nc(cs4)C(=O)NC(COC(=O)c4c5c6c(cccc6n4O)COC(=O)C(OC4CC(C)(O)C(N(C)C)C(C)O4)C2OC5)c2nc-3cs2)n1)C(N)=O (centres unmarked)  half-life (male Sprague-Dawley rat, plasma; intravenous, 2 mg/kg, single dose, infusion): 150 min
O=C(N1CCCCC1)C12CC(c3ccccc3)(C1)C2(Cl)Cl  compound remaining (metabolic stability; human, liver microsomes; 2 µM, 7 min, pH 7.4): 96%
O=C(CN1CN(c2cccc(F)c2)C2(CCN(C(=O)c3cnc4[nH]ncc4c3)CC2)C1=O)NCC(F)(F)F  CLint (mouse liver microsomes): 110 µL/min/mg protein
CC(C)(C)COCCOCCN1C[C@H](O)[C@@H](O)[C@H](O)[C@@H]1CO  IC50 (Ugcg; enzyme activity, inhibitor, fluorescence): 12.1 µM
CC(=O)N([O-])CCCCCNC(=O)CCC(=O)N([O-])CCCCCNC(=O)CCC(=O)N([O-])CCCCCN.[89Zr+4]  intact complex (radio-TLC; aqueous buffer; 3 d, pH 7.2, 37 °C, 89Zr-labelled complex, together with: FeCl3 100-fold excess): 40.7 ± 3.1%
COc1cccc(OC)c1-c1cc(C(=O)NC2(C(=O)O)C3CC4CC(C3)CC2C4)nn1-c1ccc(C(=O)N(C)CCCN(C)C(=O)[C@H](CCCCNC(=O)[C@H](CC(C)C)NC(=O)C2OC2C(=O)O)NC(=O)CN2CCN(CC(=O)[O-])CCN(CC(=O)[O-])CCN(CC(=O)[O-])CC2)cc1C(C)C.[177Lu+3] (mixture of isomers)  tumour-to-kidney ratio (mouse, HT-29 xenograft; 72 h post injection, biodistribution; baseline: tumour over kidney uptake): 0.6
CC(C)(C)NCC(SS(=O)(=O)O)c1ccccc1 (centres unmarked)  body weight (Swiss Webster mice, Schistosoma mansoni-infected; 400 mg/kg single dose on day 42 post-infection, perfusion day 56 post-infection): 36.1 g
COc1cccc(OC)c1-c1cc(C(=O)NC2(C(=O)O)C3CC4CC(C3)CC2C4)nn1-c1ccc(C(=O)N(C)CCOCCOCCN(C)C(=O)[C@H](CCCCNC(=O)[C@H](CC(C)C)NC(=O)C2OC2C(=O)O)NC(=O)CN2CCN(CC(=O)[O-])CCN(CC(=O)[O-])CCN(CC(=O)[O-])CC2)cc1C(C)C.[177Lu+3] (mixture of isomers)  tissue uptake (mouse HT-29 xenograft, large intestine; 4 h post injection, biodistribution): 1.2 %ID/g
O=C(CN1CCOCC1)Nc1ccc([C@H]2[C@@H](F)[C@@H](F)C[C@@H](F)[C@H]2F)cc1  hepatic clearance (liver microsome stability; human liver microsomes; 1 µM, without NADPH): 3.9 mL/min/kg
O=C(NC1CCC(F)(F)CC1)C(c1cncnc1)N(C(=O)C(F)Cl)c1ccc(-c2cncs2)cc1 (centres unmarked)  CLint (human liver microsomes; concentration not given, pH 7.4): 29.6 µL/min/mg
Cc1noc(C)c1Cn1cc(N2C(=O)CN(Cc3cccc(O[C@@H]4O[C@H](C(=O)O)[C@@H](O)[C@H](O)[C@H]4O)c3)C2=O)cn1  plasma concentration (Sprague-Dawley rat, male; oral, 100 mg/kg of parent drug, 4 h): 6030 ng/mL
CN1CCC[C@]1(C)/C=C/S(=O)(=O)NC(=O)Nc1c2c(cc3c1CCC3)CCC2  subjects with adverse event (refers to: Constipation, possibly related; human; oral, 50 mg twice daily, 14 days, multiple ascending dose): 33.3%
CC(C)=CCC1=C([O-])C(=O)c2ccccc2C1=O.CC(C)=CCC1=C([O-])C(=O)c2ccccc2C1=O.O.[Cu+2].c1ccc(-c2ccccn2)nc1  Epc2 cathodic peak potential (cyclic voltammetry; CH2Cl2, Bu4NPF6; 0.1 mM; baseline: Ag/AgCl sat. KOH): 0.04 V
CC(C)(O)c1ncc([S@](N)(=O)=NC(=O)Nc2c3c(cc4c2CCC4)CCC3)s1  subjects with TEAEs (refers to: skin, subcutaneous tissue disorders; healthy human; oral, 100 mg, CT formulation, fasted): 17%
COc1cccc(OC)c1-c1cc(C(=O)NC2(C(=O)O)C3CC4CC(C3)CC2C4)nn1-c1ccc(C(=O)NCCNC(=O)[C@H](CCCCNC(=O)[C@H](CC(C)C)NC(=O)C2OC2C(=O)O)NC(=O)CN2CCN(CC(=O)[O-])CCN(CC(=O)[O-])CCN(CC(=O)[O-])CC2)cc1C(C)C.[177Lu+3] (mixture of isomers)  tumour-to-kidney ratio (mouse, HT-29 xenograft; 72 h post injection, biodistribution; baseline: tumour over kidney uptake): 1.49
CCN(CC)c1ccc2c(c1)O[B-]1(c3ccccc3C#N)OC(=O)C(c3ccccc3)=N[N+]1=C2CC(C)C (centres unmarked)  fluorescence emission maximum (toluene): 518 nm
COC1C=COC2(C)Oc3c(C)c(O)c4c(c3C2=O)C2=NC3(CCN(CC(C)C)CC3)NC2=C(NC(=O)C(C)=CC=CC(C)C(O)C(C)C(O)C(C)C(OC(=O)Nc2cccnn2)C1C)C4=O (centres unmarked)  AUC (CD-1 mouse, plasma; oral, 12.5 mg/kg, efficacy dose): 84200 ng·h/mL
COc1cc2c(cc1OC)[C@H]1C[C@@H](O)[C@H](CC(C)C)CN1CC2  Tlag (refers to: non-deuterated analyte; healthy human male, plasma; oral, 25 mg, median, [14C]-tetrabenazine dosed): 0.33 h
COc1ccc2c(c1)CN(C(=O)CCN1CCC(Cc3ccccc3)CC1)CCS2  fu (human plasma; 75 ng/mL): 0.018
OC[C@H]1[C@@H](O)[C@H](O)[C@@H](O)CN1CCCCCOCc1ccc(-c2ccccc2)cc1C(F)(F)F  IC50 (Ugcg; enzyme activity, inhibitor, fluorescence): 0.003 µM
Cc1nn(-c2nc3c(F)cc(F)cc3s2)c(O)c1C(c1ccc(C(F)(F)F)cc1)c1c(C)nn(-c2nc3c(F)cc(F)cc3s2)c1O  Tlast (ICR mouse, plasma; intraperitoneal, 10 mg/kg): 24 h
CC[C@H](C)[C@@H]1NC(=O)[C@H](Cc2ccc(O)cc2)NC(=O)CCCSC[C@@H](C(=O)N(CC(=O)N[C@@H](CC(C)C)C(=O)NCC(N)=O)Cc2ccc(F)cc2)NC(=O)[C@H](CC(N)=O)NC(=O)[C@H](CCC(N)=O)NC1=O  AE leading to discontinuation (human; intranasal, 50 µg single dose): 0%
CCC(=O)N(C)c1ccc(Cl)c(Cl)c1  plasma concentration (mouse C57BL/6, female, plasma; intravenous, 2 mg/kg, 2 h): 23.4 ng/mL
F[C@@H]1[C@H](c2ccc(-c3cnc(N4CCOCC4)nc3)cc2)[C@H](F)[C@H](F)C[C@@H]1F  hepatic clearance (liver microsome stability; cynomolgus liver microsomes; 1 µM): 27 mL/min/kg
OCCCN1CC[C@@H]2C[C@H]1c1cc(-c3ccc(C(F)(F)F)cc3)ccc12  t1/2 (brain; ip, concentration not given): 684 min

A few entries again:
OC[C@H]1[C@@H](O)[C@H](O)[C@@H](O)CN1CCCCCOCc1ccc(-c2ccccc2)cc1C(F)(F)F  IC50 (Ugcg; enzyme activity, inhibitor, fluorescence): 0.003 µM
Cc1nn(-c2nc3c(F)cc(F)cc3s2)c(O)c1C(c1ccc(C(F)(F)F)cc1)c1c(C)nn(-c2nc3c(F)cc(F)cc3s2)c1O  Tlast (ICR mouse, plasma; intraperitoneal, 10 mg/kg): 24 h
CC[C@H](C)[C@@H]1NC(=O)[C@H](Cc2ccc(O)cc2)NC(=O)CCCSC[C@@H](C(=O)N(CC(=O)N[C@@H](CC(C)C)C(=O)NCC(N)=O)Cc2ccc(F)cc2)NC(=O)[C@H](CC(N)=O)NC(=O)[C@H](CCC(N)=O)NC1=O  AE leading to discontinuation (human; intranasal, 50 µg single dose): 0%
